Measured values from different studies.
Parts stem from different laboratories: compare values within a part only.

Block 1
Target: Sal-like protein 4, full length isoform A (SALL4, Homo sapiens, UniProt Q9UJQ4, residues 1-1053)
Sequence of UniProt Q9UJQ4 (whole entry, looked up): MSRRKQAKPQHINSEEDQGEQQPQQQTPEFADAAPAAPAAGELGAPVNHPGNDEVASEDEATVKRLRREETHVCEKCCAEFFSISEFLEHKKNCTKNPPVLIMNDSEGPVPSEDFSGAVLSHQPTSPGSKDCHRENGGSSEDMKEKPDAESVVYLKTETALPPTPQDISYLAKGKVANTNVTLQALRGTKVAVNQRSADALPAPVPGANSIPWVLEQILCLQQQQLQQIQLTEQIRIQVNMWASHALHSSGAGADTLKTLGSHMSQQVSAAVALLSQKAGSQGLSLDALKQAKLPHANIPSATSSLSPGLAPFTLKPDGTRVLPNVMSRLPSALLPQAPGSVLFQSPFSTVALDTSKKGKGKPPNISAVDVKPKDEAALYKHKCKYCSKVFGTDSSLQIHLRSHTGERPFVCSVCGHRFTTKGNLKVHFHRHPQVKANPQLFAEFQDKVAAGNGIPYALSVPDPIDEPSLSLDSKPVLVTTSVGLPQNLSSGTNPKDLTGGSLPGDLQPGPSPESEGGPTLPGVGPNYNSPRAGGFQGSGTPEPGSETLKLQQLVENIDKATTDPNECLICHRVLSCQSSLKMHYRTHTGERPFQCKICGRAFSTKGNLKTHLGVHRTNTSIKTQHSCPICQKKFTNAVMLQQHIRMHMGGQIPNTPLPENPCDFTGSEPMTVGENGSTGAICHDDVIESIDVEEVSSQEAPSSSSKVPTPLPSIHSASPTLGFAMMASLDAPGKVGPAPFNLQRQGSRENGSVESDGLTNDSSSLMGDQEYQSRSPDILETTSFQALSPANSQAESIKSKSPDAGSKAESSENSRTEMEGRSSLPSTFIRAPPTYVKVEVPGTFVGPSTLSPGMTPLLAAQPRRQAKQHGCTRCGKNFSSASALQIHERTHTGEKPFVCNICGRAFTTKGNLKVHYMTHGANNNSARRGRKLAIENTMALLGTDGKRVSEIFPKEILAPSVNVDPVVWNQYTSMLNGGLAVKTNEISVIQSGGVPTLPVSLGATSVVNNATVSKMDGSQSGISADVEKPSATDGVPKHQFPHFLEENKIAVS
Technique: universal PBM
Form: double-stranded DNA, one strand shown
Sample: in vitro
Tested at: 600 nM
Setting: 8-mer, flanks averaged, mean of replicates
Reading: higher = stronger binding
With `ATACGCAT` the E-score was 0.162.
`GACTTTGC` gave an E-score of -0.17.
For `GCGCCTAC`, the E-score was -0.15.
With `AAACAGCT` the E-score was -0.0613.
For `ATGCCTTG`, the E-score was -0.0638.
With `ATCCCTTC` the E-score was -0.0998.
`GACAGGGC` has an E-score of -0.283.
For `CATCTCCG`, the E-score was -0.105.
With `CGAAGAAC` the E-score was 0.0466.
The E-score of `AAGTCGAG` is reported as -0.0909.
With `ACATGAGC` the E-score was -0.0324.
With `GGGGCTAA` the E-score was -0.22.
`CACTACGA` has an E-score of 0.00981.
For `ACATAAAG`, the E-score was 0.286.
For `ACCATAGT`, the E-score was 0.0898.
`GATTTTCC` has an E-score of 0.0397.
For `GACCGGTA`, the E-score was -0.313.
The E-score of `CGGAGGAG` is reported as -0.221.
`GTAGAGTA` gave an E-score of 0.125.
`AGAGAGTG` has an E-score of -0.102.
`AAATTAGT` has an E-score of 0.311.
`TCGGCGCA` has an E-score of -0.218.
`ATGCGTTG` has an E-score of 0.0759.
With `ACGTTACG` the E-score was 0.0354.
For `CAGTATTA`, the E-score was 0.204.

Block 2
Target: Prothrombin, mature alpha-thrombin (F2, Homo sapiens, UniProt P00734)
Technique: aptamer microarray, sandwich
Form: DNA with 2'F-ANA
Sample: in vitro
Tested at: 200 nM
Setting: whole 15-mer aptamer, many near background
Added: Cy3 exosite-II aptamer, 400 nM
Reading: higher = stronger binding
Strand: GGTTGGTGTGGTTGG
`2'F-ANA at 1 2 3 5 6 7 9 11 13` — result for “mean fluorescence intensity”: 77.5 a.u.
`2'F-ANA at 1 2 7 8 11 14 15`: “mean fluorescence intensity” 58.3 a.u.
`2'F-ANA at 1 2 3 4 6 7 11 12 13 14`: “mean fluorescence intensity” 60.7 a.u.
`2'F-ANA at 2 3 4 6 7 10 13 14 15`: “mean fluorescence intensity” 153 a.u.
`2'F-ANA at 1 3 4 5 7 8 10 11 12` — result for “mean fluorescence intensity”: 70.8 a.u.
`2'F-ANA at 1 2 6 9 11 15` — result for “mean fluorescence intensity”: 109 a.u.
`2'F-ANA at 2 5 7 8 9 13 14`: “mean fluorescence intensity” 49 a.u.
`2'F-ANA at 1 5 8 12 13 14` — result for “mean fluorescence intensity”: 47.7 a.u.
`2'F-ANA at 3 4 5 10 12 13 15` — result for “mean fluorescence intensity”: 50.6 a.u.
`2'F-ANA at 1 2 5 6 7 9 12 13 14`: “mean fluorescence intensity” 47.1 a.u.
`2'F-ANA at 2 7 10 11 12 13 15`: “mean fluorescence intensity” 155 a.u.
Under “mean fluorescence intensity”, `2'F-ANA at 1 3 4 6 7 8 12 13 14 15` is recorded as 96.2 a.u.
For `2'F-ANA at 3 6 7 8 9 10 12 15`, “mean fluorescence intensity” read 575 a.u.
For `2'F-ANA at 1 2 11 12 15`, “mean fluorescence intensity” read 326 a.u.
`2'F-ANA at 1 4 5 6 7 8 9 10 11 14 15` — result for “mean fluorescence intensity”: 49.7 a.u.
For `2'F-ANA at 2 3 5 7 8 9 10 14 15`, “mean fluorescence intensity” read 56.4 a.u.
`2'F-ANA at 1 4 5 7`: “mean fluorescence intensity” 60.5 a.u.
For `2'F-ANA at 1 4 5 8 9 10 14`, “mean fluorescence intensity” read 45.9 a.u.
`2'F-ANA at 2 3 5 6 7 9 11 15` — result for “mean fluorescence intensity”: 130 a.u.
`2'F-ANA at 1 2 4 5 6 7 8 12 13 14`: “mean fluorescence intensity” 46.9 a.u.
For `2'F-ANA at 2 4 6 7 8 12 13 14 15`, “mean fluorescence intensity” read 109 a.u.
Under “mean fluorescence intensity”, `2'F-ANA at 1 3 4 6 7 8 9 10 12 13 14 15` is recorded as 56.7 a.u.

Block 3
Target: Ras GTPase-activating protein-binding protein 1, full length (G3BP1, Homo sapiens, UniProt Q13283)
Sequence of UniProt Q13283 (whole entry, looked up): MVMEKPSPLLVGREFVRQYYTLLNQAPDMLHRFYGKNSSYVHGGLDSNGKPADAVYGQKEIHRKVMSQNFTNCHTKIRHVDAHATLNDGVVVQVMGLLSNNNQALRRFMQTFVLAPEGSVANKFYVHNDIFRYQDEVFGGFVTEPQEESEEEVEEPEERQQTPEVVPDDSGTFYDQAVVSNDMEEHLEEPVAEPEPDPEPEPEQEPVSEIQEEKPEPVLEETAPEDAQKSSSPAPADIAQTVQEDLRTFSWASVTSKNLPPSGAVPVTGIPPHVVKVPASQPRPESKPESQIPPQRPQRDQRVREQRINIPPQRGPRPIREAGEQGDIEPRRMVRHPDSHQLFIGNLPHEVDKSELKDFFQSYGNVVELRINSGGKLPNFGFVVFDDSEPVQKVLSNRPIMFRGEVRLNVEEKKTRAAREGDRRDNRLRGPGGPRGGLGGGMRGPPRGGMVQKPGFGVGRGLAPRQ
Technique: RNA Bind-n-Seq
Form: RNA
Sample: in vitro
Tested at: 200 nM
Setting: whole 134-nt RNA, ends assumed
Added: 150 mM LiCl
Relative to: input library
Reading: higher = stronger binding
Library: 7-deaza-guanosine replaces G
Constant ends, left off below: GGGAGUUCUACAGUCCGACGAUC … UGGAAUUCUCGGGUGUCAAGG
For `CCUGUGCUACACAUCGUAUGUACCGAAUCGGGGUUUUUUUGGGGUGGGGAAAAAAAGGGGAAAGUAUUAUGUUACGCCGUUCGGAUCUGC`, the log2 enrichment was 0.18.
`GUCCUGUGCUACACAUCGUAUGUACCGAAUCAAACCCCCCCAAAUUUAAAUUUUUAAAAAAGUAUUAUGUUACGCCGUUCGGAUCUGCAC` gave a log2 enrichment of 1.12.
With `AGUCCUGUGCUACACAUCGUAUGUACCGAAUCGGGGAAAAAGGAAAAAGGGAAAAAGGAAAGUAUUAUGUUACGCCGUUCGGAUCUGCAC` the log2 enrichment was -0.439.
With `AGUCCUGUGCUACACAUCGUAUGUACCGAAUCGGUUUUUUUGGAAAAAGGAAAAAGGAAAGUAUUAUGUUACGCCGUUCGGAUCUGCACU` the log2 enrichment was -2.51.
`CUGUGCUACACAUCGUAUGUACCGAAUCGGGGAAAAAAAGGGGUUUUUGGGGAAAAAGGGGAAAGUAUUAUGUUACGCCGUUCGGAUCUG` gave a log2 enrichment of -0.229.
With `CACAGACAACACGCACCCACACAGACACAGAGGGAAGGGGUUGGGAUGGGGACAGGGUGCACAGCAAGGCGGGGUAGGACCCCAGCCCCU` the log2 enrichment was 0.257.
`UAACUUUAGAGGAGGGUCUGAUGGAUAUGGCAGUGGACGUGGAUUUGGGGAUGGCUAUAAUGGGUAUGGAGGAGGACCUGGAGGUGGCAA` gave a log2 enrichment of -0.195.
`GCAGGAAGUAAAAACAAAUGGAAAUAAAUCGGAUAGUGGCAGGGGUGGGGGUUGCUAAGGAAAGGGUGGGAUGGGAGUGGGUAAAGAGUU` has a log2 enrichment of 0.255.
With `GCAGGAAGUAAAAACAAAUGGUAAUGCUUCGGAUAGUGGCAGGGGUGGGGGUUGCUAAGGAAAGGGUGGGAUGGGAGUGGGUAAAGAGUU` the log2 enrichment was -0.061.
With `CUGUGCUACACAUCGUAUGUACCGAAUCGGUUUUUUUGGGGUUUUUUUGGGGUUUUUUUGGGAAAGUAUUAUGUUACGCCGUUCGGAUCU` the log2 enrichment was 1.47.
The log2 enrichment of `GCAGGAAGUAAAAACAAAUGGAAAUGCUUCGGAUAGUGGCAGGGGUGGGGGUUGCUAAGGAAAGGGUGGGAUGGGAGAGGGUAAAGAGUU` is reported as 0.357.

Block 4
Target: Histone acetyltransferase KAT6A, both winged helices, GST fusion (KAT6A, Homo sapiens, UniProt Q92794, residues 1-181)
Technique: protein binding microarray
Form: double-stranded DNA, one strand shown
Sample: in vitro
Tested at: not given
Setting: 8-mer, flanks averaged, mean of 2 arrays, mostly near background
Relative to: not given
Reading: higher = stronger binding
Target sequence (chain): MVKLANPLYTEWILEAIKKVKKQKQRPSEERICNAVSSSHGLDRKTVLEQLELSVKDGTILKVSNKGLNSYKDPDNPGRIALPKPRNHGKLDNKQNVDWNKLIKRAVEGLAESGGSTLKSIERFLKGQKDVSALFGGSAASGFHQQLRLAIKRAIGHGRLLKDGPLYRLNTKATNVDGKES
The E-score of `GGGACTTA` is reported as -0.111.
With `CTTTGGAC` the E-score was 0.0206.
`GTATCACA` gave an E-score of 0.0303.
`ATAGTTGA` has an E-score of -0.023.
The E-score of `ACTCCGAG` is reported as -0.109.
With `CCGGAGAA` the E-score was 0.164.
For `ATAAATGG`, the E-score was -0.112.
`CCAAACCC` gave an E-score of -0.0822.
With `CCGGTTCA` the E-score was 0.141.
With `AATAGCGA` the E-score was 0.0463.
`CATACAGA` gave an E-score of -0.0515.
`AGCTGACG` has an E-score of 0.144.
`AGACGAAA` has an E-score of 0.076.
`CGAATTTA` has an E-score of 0.0268.
The E-score of `ATGAAGAG` is reported as -0.00222.
The E-score of `ACAGCTAA` is reported as -0.123.
`AAGACCTG` gave an E-score of -0.266.
The E-score of `CTAGGAAG` is reported as -0.118.
For `ACTGGGCA`, the E-score was -0.32.
`CTAGTTAA` has an E-score of -0.114.
For `CGATATAC`, the E-score was 0.0516.
The E-score of `AACGGACG` is reported as 0.173.
`CCATGCGC` has an E-score of 0.152.
`ACCGTAGG` gave an E-score of -0.00494.
With `AGGTAGTG` the E-score was -0.0991.

Block 5
Target: RING finger protein unkempt homolog, zinc fingers 1-6, GST-SBP tag (UNK, Homo sapiens, UniProt Q9C0B0, residues 30-357)
Sequence of UniProt Q9C0B0 (30-357, looked up): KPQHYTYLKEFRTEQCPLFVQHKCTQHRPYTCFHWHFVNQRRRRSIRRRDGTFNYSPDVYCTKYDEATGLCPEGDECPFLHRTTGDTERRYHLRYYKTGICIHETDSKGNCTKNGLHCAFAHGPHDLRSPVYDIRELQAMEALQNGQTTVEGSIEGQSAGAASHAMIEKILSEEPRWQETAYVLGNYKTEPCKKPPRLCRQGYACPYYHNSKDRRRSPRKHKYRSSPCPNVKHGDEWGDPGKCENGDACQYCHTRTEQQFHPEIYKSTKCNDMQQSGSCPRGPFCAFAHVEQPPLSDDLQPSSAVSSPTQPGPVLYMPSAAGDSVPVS
Technique: RNA Bind-n-Seq
Form: RNA
Sample: in vitro
Tested at: not given
Setting: RNA with constant flanks, human-mouse chimeric sites, ends assumed
Relative to: input RNA pool
Reading: higher = stronger binding
Constant ends, left off below: GGGAGUUCUACAGUCCGACGAUC … CAACAGAGGAUUGAGCAUCA
`GCAAAGGAUGAUGAGGCGGCAGCUGUUGCCCUUUCCUCUCUCGUUCAUGCUUUGGAUGAGUUAAACAUGGUCGCCAUAGUUCGAUAUGCUUAUGACAAAAGAUCUAAUCCUCAAGUCGGU` has a bound/input enrichment of 0.822 ratio.
`AGAGCCCAGGACGUUGAUGCUACAAAUCCAAAUUACGAAAUUAUGUGUAUGAUCAGAGACUUCAGAGGAAGUUUGGAUUACAGACCCCUAACAACAGCAGAUCCUAUUGAUGAACAUAGG` has a bound/input enrichment of 0.518 ratio.
`GAUAAGAAAAACUUGUUGGAGACCCGCUUGCAUGUCACUGGCAGAGACCUGAGGUGUCAAAUAGCUGAAACUUUCGGAUUUCAAGAAAAUUACAUCAAGAUCGUAAUAAAUAAGAAACAG` has a bound/input enrichment of 0.347 ratio.
`GCUCCUCCCCGCUCUGCAGCCUGGGGACACUGGGCUGCAUUUUUUUUCCAGCUUUCUUUUAAAACUCUCAGUGUAACUGUAUCCCGUGACAUUUCAUUUUUUUUAAAAGAAAAAAACUUU` gave a bound/input enrichment of 0.26 ratio.
For `CGCUUGGAUGAGGCGGGUGUCACAGAUGAAGUGCUAGAUUCUGCCAUGCAAGCCUUCCUUCUGGAGGUUAUCGUUAAACAUGGGGAGCCAGCCCCUUAUUUAUGUAACAAAGAUCCGUUU`, the bound/input enrichment was 0.185 ratio.
`AUUGUUGAAGCUAACCCACUUUUAGAAGCAUUUGGAAAUGCAAAGACUGUUCGCAACAAUAAUAGCAGUCGAUUUGGAAAAUUUGUAGAAAUUCAUUUCAAUGAAAAGAGCUCAGUUGUU` has a bound/input enrichment of 0.563 ratio.
The bound/input enrichment of `AAAGAGAAUGGAGAUGUAAAGAUUUUGCUGAAAAGUGGGAAGGAGAAACCAAAAACAAAUAUAGAAGACUUACAAAUUAAAAAAGUAAAGAAGAAAAAGAAAAAGAAACACAAAGAGAAU` is reported as 13.2 ratio.
`GUGACUGGUGUUAAGAUUUCCCCUCAGCAAAGAAGUGCAGUAGUCACCAUAAUUCCAUCUGUGGUGAAUGCCAAUCAGAUUGUGGAGCUGGUUCCAGACCUCAGUUUAGACAUGGGAACU` has a bound/input enrichment of 0.203 ratio.
With `UCGGAUGCUGUGCUGGGUCACUUUCCGUAUCCAGAUCCUUCCCAGUGGACAGAUGAAGAACUGGGAAUCCCUCCUGAUGACGAGGACUGACACUGUAAACUCUCUGGACGAGUAGGAGCA` the bound/input enrichment was 0.569 ratio.
With `CUGUGCGGGUGACUGUCCUGGAGUGGCCGUGUCACCGGCCGGAGCGCGGCCAGACUAAUUUUAGAAAAUGCCAAGUAGGAAGUUUGUUGAGGGUGAAGUGGUCAGAGGCCGAUGGCCUGG` the bound/input enrichment was 2.1 ratio.
With `GGACAUCUGUCAAAUUGUUAUGUUCCUGUGAAACAAGUGAACACUCUGAUACACUUCAUCUGCUUGUACAUCUGUAUUUGUAUAAUAUGUAAAUAUGAAUAUAUUUACAAUGUGUCACUU` the bound/input enrichment was 0.108 ratio.

Some of these lines once more (block 2):
`2'F-ANA at 1 2 7 8 11 14 15`: “mean fluorescence intensity” 58.3 a.u.
`2'F-ANA at 1 2 3 4 6 7 11 12 13 14`: “mean fluorescence intensity” 60.7 a.u.
`2'F-ANA at 2 3 4 6 7 10 13 14 15`: “mean fluorescence intensity” 153 a.u.
`2'F-ANA at 1 3 4 5 7 8 10 11 12` — result for “mean fluorescence intensity”: 70.8 a.u.
`2'F-ANA at 1 2 6 9 11 15` — result for “mean fluorescence intensity”: 109 a.u.
`2'F-ANA at 2 5 7 8 9 13 14`: “mean fluorescence intensity” 49 a.u.
`2'F-ANA at 1 5 8 12 13 14` — result for “mean fluorescence intensity”: 47.7 a.u.
`2'F-ANA at 3 4 5 10 12 13 15` — result for “mean fluorescence intensity”: 50.6 a.u.
`2'F-ANA at 1 2 5 6 7 9 12 13 14`: “mean fluorescence intensity” 47.1 a.u.
